Experimental data from different studies.
Numbers after ± are the reported error.

NCCCC[C@@H]1NC(=O)[C@@H](Cc2c[nH]c3ccccc23)NC(=O)[C@H](c2ccccc2)NC(=O)[C@@H]2C[C@@H](OC(=O)NCCN)CN2C(=O)[C@H](Cc2ccccc2)NC(=O)[C@H](Cc2ccc(OCc3ccccc3)cc2)NC1=O
plasma concentration (radioimmunoassay; healthy male volunteers, plasma; subcutaneous, 1 µg, below LLOQ): < 0.03 ng/mL

COc1cc2c(cc1OC)CN(CCc1ccc(NC(=O)c3cc(OC)c(OC)cc3NC(=O)c3cnc4ccccc4c3)cc1)CC2
plasma concentration (patients, plasma; intravenous, 150 mg, 48 h post-dose, cycle 1, no vinorelbine): 66 ng/mL

CNC(=O)c1ccccc1Sc1ccc2c(/C=C/c3ccccn3)n[nH]c2c1
plasma concentration (New Zealand White rabbits, plasma; suprachoroidal, 1 mg/eye, 6 h): 0.288 ng/mL

CS(=O)(=O)n1cc2c(n1)CN([C@H]1CO[C@H](c3cc(F)ccc3F)[C@@H](N)C1)C2
plasma concentration (healthy Japanese men, fasted, plasma; oral, 100 mg single dose, 168 h): 0.0545 µM

polysorbate 80
plasma concentration (human, plasma; concentration not given, 1 h after loading dose, day 1): 5300 ng/mL

OC[C@H]1O[C@@H](c2ccc(Cl)c(Cc3ccc(O[C@H]4CCOC4)cc3)c2)[C@H](O)[C@@H](O)[C@@H]1O
plasma concentration (HPLC-MS/MS; healthy Chinese volunteers, fasting; oral, 10 mg tablet, 1.75 h): 158 ± 32.4 ng/mL

Cc1cc(C)c2c(c1)[C@@H](N(Cc1cc(C(F)(F)F)cc(C(F)(F)F)c1)c1nnn(C)n1)CCCN2C[C@H]1CC[C@H](C(=O)O)CC1
plasma concentration (dyslipidemic patients, plasma; oral, dose not given, 4 to 6 weeks after last dose, patients above quantitation limit): < 3 ng/mL

liraglutide
plasma protein binding (equilibrium dialysis; human plasma 50% diluted; 10 nM, 4 to 5 h, pH 7.4, 37 °C, inner-outer ratio 50:1): 98.8%

Repeated from above:
NCCCC[C@@H]1NC(=O)[C@@H](Cc2c[nH]c3ccccc23)NC(=O)[C@H](c2ccccc2)NC(=O)[C@@H]2C[C@@H](OC(=O)NCCN)CN2C(=O)[C@H](Cc2ccccc2)NC(=O)[C@H](Cc2ccc(OCc3ccccc3)cc2)NC1=O
plasma concentration (radioimmunoassay; healthy male volunteers, plasma; subcutaneous, 1 µg, below LLOQ): < 0.03 ng/mL
